# Measured values pooled from the literature.
# Each numbered part is a random draw from the data of one study; scales do not carry over between parts.

# Series 1
# Target: UBE2D1 UBC core domain (UniProt P51668)
# Method: yeast two-hybrid
# Matrix: yeast
# Notes: mostly zero background
# Relative to: not given
# Reading: higher = stronger interaction
# B1: TRIM41 RING domain (UniProt Q8WV44); chain PVQTLQEEAVCAICLDYFTDPVSIGCGHNFCRVCVTQLWGGEDEEDRDELDREEEEEDGEEE
# B2: RNF6 RING domain (UniProt Q9Y252); chain NSIDSELGKICSVCISDYVTGNKLRQLPCMHEFHIHCIDRWLSENCTCPICRQPVLGSNIAN
# B3: RING1 RING domain (UniProt Q06587); chain SPRSLHSELMCPICLDMLKNTMTTKECLHRFCSDCIVTALRSGNKECPTCRKKLVSKRSLR
# B4: RNF103 RING domain (UniProt O00237); chain WPADMLHCTECVVCLENFENGCLLMGLPCGHVFHQNCIVMWLAGGRHCCPVCRWPSYKKKQPY
# B5: VPS8 RING domain (UniProt Q8N3P4); chain TRGLNPKQDYCSICLQQYKRRQEMADEIIVFSCGHLYHSFCLQNKECTVEFEGQTRWTCYKCSSSNKVGKLSE
# B6: RUFY1 RING domain (UniProt Q96T51); chain QALKGHAWLKDDEATHCRQCEKEFSISRRKHHCRNCGHIFCNTCSSNELALPSYPKPVRVCDSCHTLLLQRCSSTAS
# B7: ARIH2 RING domain (UniProt O95376); chain HVPTSHPPHHCAVCMQFVRKENLLSLACQHQFCRSCWEQHCSVLVKDGVGVGVSCMAQDCPLRTPEDFVF
# B8: ZNRF4 RING domain (UniProt Q8WWF5); chain VRTFTWHNDLCAICLDEYEEGDQLKILPCSHTYHCKCIDPWFSQAPRRSCPVCKQSVAATEDSF
# Construct (chain): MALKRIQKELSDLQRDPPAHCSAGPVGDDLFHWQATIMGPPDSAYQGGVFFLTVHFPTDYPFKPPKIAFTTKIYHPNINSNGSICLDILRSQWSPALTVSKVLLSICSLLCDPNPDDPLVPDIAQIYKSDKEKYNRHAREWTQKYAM
Sequence,lacZ reporter activity
B1 (TRIM41 RING domain),0
DDVLTKDAGECVICLEELLQGDTIARLPCLCIYHKSCIDSWFEVNRSCPEHPAD (ZNRF1 RING domain (UniProt Q8ND25)),12200
B2 (RNF6 RING domain),0
B3 (RING1 RING domain),0
B4 (RNF103 RING domain),16400
B5 (VPS8 RING domain),0
B6 (RUFY1 RING domain),0
B7 (ARIH2 RING domain),0
B8 (ZNRF4 RING domain),13700

# Series 2
# Target: Sal-like protein 4, full length isoform B (SALL4, Homo sapiens, UniProt Q9UJQ4-2, residues 1-616)
# Method: universal PBM
# Molecule type: double-stranded DNA, one strand shown
# Matrix: in vitro
# Tested at: not given
# Notes: 8-mer, flanks averaged, mean of replicates
# Reading: higher = stronger binding
# Construct (chain): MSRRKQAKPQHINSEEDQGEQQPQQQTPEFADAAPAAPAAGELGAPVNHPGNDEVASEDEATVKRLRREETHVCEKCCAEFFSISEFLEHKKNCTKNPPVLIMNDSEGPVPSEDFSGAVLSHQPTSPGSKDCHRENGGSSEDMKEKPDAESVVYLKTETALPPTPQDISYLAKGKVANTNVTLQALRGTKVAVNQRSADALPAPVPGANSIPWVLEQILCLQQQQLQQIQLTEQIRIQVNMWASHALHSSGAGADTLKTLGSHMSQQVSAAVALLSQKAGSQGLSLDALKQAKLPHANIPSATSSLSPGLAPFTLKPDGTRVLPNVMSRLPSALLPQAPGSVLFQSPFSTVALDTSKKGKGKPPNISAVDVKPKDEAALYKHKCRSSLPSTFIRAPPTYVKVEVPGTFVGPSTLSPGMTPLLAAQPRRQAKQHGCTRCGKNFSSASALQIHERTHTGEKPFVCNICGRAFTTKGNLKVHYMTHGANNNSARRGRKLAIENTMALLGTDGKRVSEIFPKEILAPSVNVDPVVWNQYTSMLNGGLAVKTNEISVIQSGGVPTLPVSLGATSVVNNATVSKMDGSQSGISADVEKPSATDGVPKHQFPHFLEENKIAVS
Sequence,E-score
TAAGCCTA,0.152
AGCTCAGA,-0.172
AATACTAA,0.271
CTCTATGA,0.0805
ATAGTAAA,0.228
CAGGGAGG,-0.294
AGGGTTAG,-0.175
CAGTCGTC,-0.165
ACCTATCG,0.0242
CGTGTGCA,-0.113
CGTGGCTA,-0.0564
CAGACGTC,-0.091
CCCCTCGG,-0.335
CACAAAAA,0.25
ACAGGTTC,-0.0428
AAACTGAG,-0.155

# Series 3
# Target: Ras GTPase-activating protein-binding protein 1, full length (G3BP1, Homo sapiens, UniProt Q13283)
# UniProt Q13283, sequence (whole entry, looked up): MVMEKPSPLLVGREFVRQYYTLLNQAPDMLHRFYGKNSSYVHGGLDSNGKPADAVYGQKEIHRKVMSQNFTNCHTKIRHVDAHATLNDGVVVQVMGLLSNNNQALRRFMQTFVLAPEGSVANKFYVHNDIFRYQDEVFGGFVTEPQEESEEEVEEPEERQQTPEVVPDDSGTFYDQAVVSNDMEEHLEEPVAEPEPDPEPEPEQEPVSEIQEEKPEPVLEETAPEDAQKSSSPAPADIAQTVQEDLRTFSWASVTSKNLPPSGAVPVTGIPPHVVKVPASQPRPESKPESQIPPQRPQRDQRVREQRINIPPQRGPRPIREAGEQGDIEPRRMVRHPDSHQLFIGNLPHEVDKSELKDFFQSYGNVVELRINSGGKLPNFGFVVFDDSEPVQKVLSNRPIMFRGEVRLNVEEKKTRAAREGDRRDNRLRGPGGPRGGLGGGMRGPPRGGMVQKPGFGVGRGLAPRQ
# Method: RNA Bind-n-Seq
# Molecule type: RNA
# Matrix: in vitro
# Tested at: 200 nM
# Notes: whole 134-nt RNA, ends assumed
# With: 150 mM LiCl
# Relative to: input library
# Reading: higher = stronger binding
# Library: 7-deaza-guanosine replaces G
Sequence,log2 enrichment
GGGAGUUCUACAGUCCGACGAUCGUCCUGUGCUACACAUCGUAUGUACCGAAUCGGGGCCCCCGGGGCCCCCGGCCCCCGGAAAGUAUUAUGUUACGCCGUUCGGAUCUGCACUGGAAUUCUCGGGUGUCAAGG,-2.74
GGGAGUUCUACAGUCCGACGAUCCCUGUGCUACACAUCGUAUGUACCGAAUCGGGGUUUUUUUGGUUUUUUUGGUUUUUUUGGGAAAGUAUUAUGUUACGCCGUUCGGAUCUGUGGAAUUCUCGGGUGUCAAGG,0.647
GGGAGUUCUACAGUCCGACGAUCUCUGAGCAAUUGAAUGCCCUAAACAAGGCUUACCAUGACCUUUGUGAUGGUUCUGCAAAUCAGCUUCAGCAGCUUCAGAGCCAGUUGGCUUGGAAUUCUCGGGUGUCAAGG,-1.84
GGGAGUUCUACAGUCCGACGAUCCUCAAGUCCUGUGCUACACAUCGUAUGUACCGAAUCGGGAGGGAAAGGGAGGGAAAGUAUUAUGUUACGCCGUUCGGAUCUGCACUUCCAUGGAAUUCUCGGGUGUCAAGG,0.0611
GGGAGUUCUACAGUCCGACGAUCAAGUCCUGUGCUACACAUCGUAUGUACCGAAUCGGGGUUUGGGGUGGGGUUUGGGGAAAGUAUUAUGUUACGCCGUUCGGAUCUGCACUUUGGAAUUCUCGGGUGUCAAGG,-0.157
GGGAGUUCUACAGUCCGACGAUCUCAUGUAUAGACAACGCCAUUAUUGACGAGAUCACUCCCAAGCGGAUUGGAGAUUGUCCCAAUAUUUAGACCUAUAGCAAGGCCUUGGGAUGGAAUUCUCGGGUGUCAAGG,-0.782
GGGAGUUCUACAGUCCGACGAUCUGCUUGUGUUUCUGACAGAUUCACUGCCUUCUGAGGACUUGGAUCCUGCCGAUCCCCCGAUCUCGGUAACUGUUGGCCUGAUCUGGCUGUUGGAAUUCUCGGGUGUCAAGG,0.453
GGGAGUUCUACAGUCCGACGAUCUCAAGUCCUGUGCUACACAUCGUAUGUACCGAAUCGGAAAGGAAAGGGAAAGGGAAAGUAUUAUGUUACGCCGUUCGGAUCUGCACUUCCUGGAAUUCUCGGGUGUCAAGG,-0.048

# Series 4
# Target: RNA binding protein fox-1 homolog 2, RRM domain, GST-SBP tag (RBFOX2, Homo sapiens, UniProt O43251-10, residues 100-194)
# Method: RNA Bind-n-Seq
# Molecule type: RNA
# Matrix: in vitro
# Tested at: 365 nM
# Notes: natural RNA segment, single round, ends assumed
# Relative to: no-protein control
# Reading: higher = stronger binding
# Residues (chain): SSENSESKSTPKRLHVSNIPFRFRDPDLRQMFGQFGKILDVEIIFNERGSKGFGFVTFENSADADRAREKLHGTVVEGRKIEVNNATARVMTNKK
Sequence,RBNS enrichment (R)
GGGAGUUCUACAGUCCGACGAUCCUGCGAUGGUGUACAGGGCUGUGAUGCCGAGCGUGAGGAUGGUGGAGAGGUAGAAGUUCCAGCCCAGGCAGAUGUGCACAAACAGAGCCCCCGCGUACAGGUCCAGCUGCUGGAAUUCUCGGGUGCCAA,3.95
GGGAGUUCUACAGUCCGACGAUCACAUGACAGUUAGCUCCUCUGACCUGUCUUUCUAGGUAACUGGAAAUGAACUUCAGGCUUGAUACAGAUCUUCUCCCUGUUGGUAUUACAUAUAUAGAGAUAAUUCUCAAUGGAAUUCUCGGGUGCCAA,0.301
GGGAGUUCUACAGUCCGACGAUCUAUAAUGUAGGGGGAUAGCGGGAUAUUUUUGUUUGUGUUCUUGUAAUAUAUUAUCCUUCCUUGGUUCUAGAAGAAUAGAUAAAUAUAUUUUUUUAGGCUAUAGAAUGAUAUGGAAUUCUCGGGUGCCAA,1.38
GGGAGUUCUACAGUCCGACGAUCAGAGGUAGCUGUGGUGUUGAAACACUGGACUUGGAUAUGGGGUGCUGGGAUCGAUUCCUAGCUUUACCACUAACUAGCUGUGUGGCCUUGAGUAAAUCCCGUUACCUCUCUGGAAUUCUCGGGUGCCAA,0.308
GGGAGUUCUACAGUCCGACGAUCCCUAAUCUGAUCUAAGAAGCUGCUGUAGAGUCAGAAGUAGCUUCUGUGUGAAACUUAUAUUUGUAUGUAGCUUUCUAGGAAAAUUUUACAGACACUUAAAGUAUUUAUGCUGGAAUUCUCGGGUGCCAA,0.943
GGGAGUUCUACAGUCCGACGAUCAUGCUAUGUGCCCUCUUCACUUAGAGCGAGCUUUAGUGUGUCAAGGGACUCUGCUUUCCUGUACUUCCUAAAAGUACAUUCACUAAUACUGAAGCAUCAAAGUGUAGUUUUGGAAUUCUCGGGUGCCAA,0.539
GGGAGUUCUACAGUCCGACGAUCCGCCAGUAACUCGCCCUUCUUGGCAGGUGUCGCCUGAUUCUGAUAAUGCUGUGUUUGUUGUAAAGGUUUCCAGGACUGAGACCUUAUUCCCUGGGCUUCGUGAAAUGGCAUGGAAUUCUCGGGUGCCAA,3.46
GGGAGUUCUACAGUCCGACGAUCAGUGUUCUAAUUACCUUAAAAAAAAAUAAUGACCAGUUAAGAAUUGCUUUUGAUCUUGUCAAAAAACUGAAUAGACCCCAGUUUCGGGAAGGUGUGUGAGCAGUGCCAUGUGGAAUUCUCGGGUGCCAA,0.692
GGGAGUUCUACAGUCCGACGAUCAGAAACUGAAUCCAUGUAAGAAAAAAUAAUUGUUGAAGAAAGAAGUUGAUAGAAUUCAAAAAGGCCAUCUUUUUGCUUUCACAUCAAUAAAAUUUACCAAGUAAUAGAUCUGGAAUUCUCGGGUGCCAA,0.601
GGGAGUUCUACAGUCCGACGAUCUCUUCAUUAGAGUAAACAGUGGGACUUGGGAGGAUUAGUCUGGUGUCUAUUCUGGGCUAGAGAGAUCAUUUGACGAAAAAAAACUUACACUAUUUGAUGUACAGAAUAGAUGGAAUUCUCGGGUGCCAA,0.547
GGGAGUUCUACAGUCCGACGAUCCUGUAGAAUUGUGGGCUGUAGCGUUACUCUGAUUUUCUGUCUAGUAUCAGAGAAUGCUGGUAGCUUAAAAUUUUUAUUUUAGGACUUGUACUCUGAAUUUUCAGGAACCGUGGAAUUCUCGGGUGCCAA,0.746

# For quick reference, copied from above (series 2):
Sequence,E-score
CAGGGAGG,-0.294
AGCTCAGA,-0.172
CCCCTCGG,-0.335
CACAAAAA,0.25
